Measured values gathered from unrelated publications.
Compare with care: the assays were run in different laboratories. Values joined by “and” are separate records of one study, mostly repeats; a detail may differ.
UCHL1: Ubiquitin carboxyl-terminal hydrolase isozyme L1 (UCHL1, Homo sapiens, UniProt P09936)
Sequence of UniProt P09936 (whole entry, looked up): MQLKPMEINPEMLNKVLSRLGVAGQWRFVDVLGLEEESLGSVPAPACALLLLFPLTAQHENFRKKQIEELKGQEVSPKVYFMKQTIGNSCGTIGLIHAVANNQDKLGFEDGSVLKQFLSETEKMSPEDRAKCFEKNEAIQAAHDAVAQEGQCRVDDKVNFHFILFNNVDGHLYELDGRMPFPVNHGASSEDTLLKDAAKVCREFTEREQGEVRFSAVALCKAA

| Structure (SMILES) | target or system | test | setting | scale | endpoint | result |
| --- | --- | --- | --- | --- | --- | --- |
| CC(Cl)C(=O)NC1CCc2nc(-c3cc(F)ccc3F)cn2C1 (centres unmarked) | UCHL1 | covalent, intact protein LC-MS | 12.5 µM |  | labelling | 11.5% |
| CCN(CC)c1ccc(C=NNC(=O)CSc2nc3ccccc3c(=O)n2Cc2ccc(S(N)(=O)=O)cc2)c(O)c1 | SNB-75 | NCI five-dose screen |  |  | TGI | > 100 µM |
| Cc1cc(C)n(-c2nc(-c3ccc(Cl)cc3)c3c(NC(=O)c4ccccc4)nnc-3[nH]2)n1 | SNB-75 | SRB | 10 µM, NCI60 single-dose screen | relative to: untreated | cell growth | 48.4% |
| Cn1cncc1C1=CN(c2ncnc3[nH]cnc23)CCS1 | SNB-75 |  | CNS cancer |  | GI50 | 4.9 µM |
| O=C(Nc1nnc2n3c(nc(-c4ccc(Cl)cc4)c1-2)SCC3=O)c1ccccc1 | SNB-75 | SRB | 10 µM, NCI60 single-dose screen | relative to: untreated | cell growth | 63.8% |
| Cc1cc(C)n(C(=S)[S][Au][PH](CCCCCC[PH]([Au][S]C(=S)n2nc(C)cc2C)(c2ccccc2)c2ccccc2)(c2ccccc2)c2ccccc2)n1 | SNB-75 | cell growth, NCI-60 screen | CNS cancer |  | log10 TGI | > -4 |
| O=C(Nc1nnc2n3c(=S)[nH][nH]c3nc(-c3ccc(Cl)cc3)c1-2)c1ccccc1 | SNB-75 | SRB | 10 µM, NCI60 single-dose screen | relative to: untreated | cell growth | 89% |
| O=C1NC(=NCc2cccs2)S/C1=C\c1ccc2ncccc2c1 | SNB-75 | MTS | NCI60 panel |  | IC50 | > 10 µM |
| Cc1n[nH]c2nc(-c3ccc(Cl)cc3)c3c(NC(=O)c4ccccc4)nnc-3n12 | SNB-75 | SRB | 10 µM, NCI60 single-dose screen | relative to: untreated | cell growth | 110% |
| CCOc1ccc(-c2nc3cc(-c4nc5cc(N6CCN(C)CC6)ccc5[nH]4)ccc3[nH]2)cc1OCC | SNB-75 | SRB | 10 µM, 48 h |  | growth percent | 6.64% |
| O=C(CCl)N1N=C(c2cccs2)CC1c1ccccc1O (centres unmarked) | UCHL1 | covalent, intact protein LC-MS | 12.5 µM |  | labelling | 41.8% |
| CCCN1CCN(c2ccc3nc(-c4ccc5nc(-c6cc(OC)ccc6OC)[nH]c5c4)[nH]c3c2)CC1 | SNB-75 | SRB | 10 µM, 48 h |  | growth percent | 90.9% |
| NNc1nc(-c2ccc(Cl)cc2)c2c(NC(=O)c3ccccc3)nnc-2[nH]1 | SNB-75 | SRB | 10 µM, NCI60 single-dose screen | relative to: untreated | cell growth | 92.2% |
| CCCCN1CCN(c2ccc3[nH]c(-c4ccc5[nH]c(-c6cc(OC)c(OC)c(OC)c6)nc5c4)nc3c2)CC1 | SNB-75 | SRB | 10 µM, 48 h |  | growth percent | 38.7% |
| C#C[C@@]1(O)[C@@H](CO)O[C@@H](n2cc(I)c3c(N)ncnc32)[C@@H]1O | SNB-75 | SRB | NCI-60 screen |  | TGI | 1.81 µM and 2.18 µM |
| CCCN1CCN(c2ccc3[nH]c(-c4ccc5[nH]c(-c6cc(OC)c(OC)c(OC)c6)nc5c4)nc3c2)CC1 | SNB-75 | SRB | 10 µM, 48 h |  | growth percent | 43.6% |
| C#C[C@@]1(O)[C@@H](CO)O[C@@H](n2ccc3c(N)ncnc32)[C@@H]1O | SNB-75 | SRB | NCI-60 screen |  | TGI | 3.84 µM |
